# Experimental data of several laboratories.
# A part holds a random share of what one study measured. “And” joins repeats or separate records; there may be more than shown.

# Study 1
# Compound: Cc1ncsc1-c1ccc(C(CO)NC(=O)C2CC(O)CN2C(=O)C(C(C)C)n2cc(-c3ccc(COc4c(-c5c(C)c(F)cc6[nH]ncc56)c(C5CC5)cc5c(N6CC7CC6CN7)nc(OC6CCOCC6)nc45)cc3)nn2)cc1 (stereo not shown)
# VHL with Elongin B/C: von Hippel-Lindau disease tumor suppressor, with Elongin B/C (VHL, Homo sapiens, UniProt P40337)
# KRAS G12D GDP-bound: GTPase KRas, GDP-bound (KRAS, Homo sapiens, UniProt P01116, G12D)
target,technique,medium,notes,with,koff
VHL with Elongin B/C,"SPR, single-cycle",immobilized VCB complex,"binary, geometric mean",,0.00205 s⁻¹
KRAS G12D GDP-bound,"SPR, single-cycle",immobilized KRAS G12D,"binary, geometric mean",,0.00343 s⁻¹
VHL with Elongin B/C,"SPR, single-cycle",immobilized VCB complex,binary,,0.00223 s⁻¹ and 0.00211 s⁻¹ and 0.00182 s⁻¹
"KRAS/VHL, GDP-bound (Homo sapiens, UniProt P01116+P40337, G12D)","SPR, single-cycle",immobilized KRAS G12D,"ternary, geometric mean",VCB complex,0.000437 s⁻¹
KRAS G12D GDP-bound,"SPR, multi-cycle",immobilized KRAS G12D,"binary, geometric mean",,0.00339 s⁻¹

# Study 2
# Structure (SMILES): CCN1/C(=C/C=C2\CCCC(/C=C/C3=[N+](CC)c4ccccc4C3(C)C)=C2NCCCCCCCCN2CCC(Nc3nc4ccccc4n3Cc3ccc(F)cc3)CC2)C(C)(C)c2ccccc21
# Cell line: U-87 MG
# Concentration: concentration not given
# Baseline: DMSO
item,log2 fold change
ARHGAP29 mRNA,-1.51
CENPJ mRNA,-1.27
FERMT1 mRNA,-1.06
HAUS8 mRNA,-1.2
ANKFN1 mRNA,2.97
PCDHGA10 mRNA,-1.4
NUAK2 mRNA,-1.74
ANKRD22 mRNA,2.74
FOXD1 mRNA,-1.05
UACA mRNA,-1.09
CCDC15 mRNA,-1.16

# Study 3
# Effect on: necroptosis
# Mode: inhibitor
# Technique: CCK-8
# Cell line: L929
# Host: mouse
# With: TNF-α
SMILES,EC50
CC(C)(C)n1nc(-c2ccc(Cl)cc2)c2c(N)ncnc21,5.13 µM
Cc1cc(-c2cnc(N)c3c(-c4ccc5scnc5c4)csc23)n(C)n1,3.29 µM
Cc1c(NC(=O)c2cccn(-c3ccc(F)cc3)c2=O)ccc(Oc2ccnc(NC(=O)C3CC3)c2)c1C,1.07 µM

# Study 4
# Structure (SMILES): COCC1CC2C(CCC3(C)C(O)CCC23)c2ccc(O)cc21 (stereo not shown)
# Technique: DNA microarray
# Baseline: untreated cells
cell line,item,concentration,notes,mRNA level ratio
A549,RFC3,50 µM,,0.828
A549,DNER,100 µM,,52.5
A549,IL23R,50 µM,,10.7
SK-OV-3,RFC3,concentration not given,higher dose arm,0.845
A549,CALR3,50 µM,,1.74
A549,DNER,50 µM,,23
A549,OLIG2,100 µM,,39.4
A549,MCM4,100 µM,,0.541
PANC-1,CCL8,concentration not given,lower dose arm,32.4
PANC-1,CCL11,concentration not given,lower dose arm,1
A549,MCM4,50 µM,,0.699
PANC-1,GADD45A,concentration not given,lower dose arm,0.928
SK-OV-3,OLIG2,concentration not given,higher dose arm,11
A549,GDF15,50 µM,,2.35
PANC-1,KIF20A,concentration not given,lower dose arm,0.666 and 0.674 and 0.67 and 0.679 and 0.66

# Repeated from above (study 3):
SMILES,EC50
Cc1c(NC(=O)c2cccn(-c3ccc(F)cc3)c2=O)ccc(Oc2ccnc(NC(=O)C3CC3)c2)c1C,1.07 µM
Cc1cc(-c2cnc(N)c3c(-c4ccc5scnc5c4)csc23)n(C)n1,3.29 µM
CC(C)(C)n1nc(-c2ccc(Cl)cc2)c2c(N)ncnc21,5.13 µM
